Measured values from different studies.
Numbered parts are unrelated; each lists some results of a single study. Changes are numbered by the printed parent chain.
UniProt O95747, sequence (whole entry, looked up): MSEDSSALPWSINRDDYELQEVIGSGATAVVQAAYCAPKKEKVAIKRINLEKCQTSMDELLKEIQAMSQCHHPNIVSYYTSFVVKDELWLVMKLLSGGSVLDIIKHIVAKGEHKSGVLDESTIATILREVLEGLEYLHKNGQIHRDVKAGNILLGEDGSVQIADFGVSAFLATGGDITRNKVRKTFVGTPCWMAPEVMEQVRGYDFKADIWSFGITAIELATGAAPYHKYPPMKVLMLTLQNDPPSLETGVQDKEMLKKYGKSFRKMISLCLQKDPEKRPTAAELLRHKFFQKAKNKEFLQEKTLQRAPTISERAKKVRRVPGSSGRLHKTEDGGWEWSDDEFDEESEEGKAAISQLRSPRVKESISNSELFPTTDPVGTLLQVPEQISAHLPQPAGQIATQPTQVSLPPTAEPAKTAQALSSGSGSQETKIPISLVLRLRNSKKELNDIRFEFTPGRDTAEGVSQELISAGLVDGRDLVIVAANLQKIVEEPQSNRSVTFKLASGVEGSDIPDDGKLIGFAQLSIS
UniProt O96017, sequence (whole entry, looked up): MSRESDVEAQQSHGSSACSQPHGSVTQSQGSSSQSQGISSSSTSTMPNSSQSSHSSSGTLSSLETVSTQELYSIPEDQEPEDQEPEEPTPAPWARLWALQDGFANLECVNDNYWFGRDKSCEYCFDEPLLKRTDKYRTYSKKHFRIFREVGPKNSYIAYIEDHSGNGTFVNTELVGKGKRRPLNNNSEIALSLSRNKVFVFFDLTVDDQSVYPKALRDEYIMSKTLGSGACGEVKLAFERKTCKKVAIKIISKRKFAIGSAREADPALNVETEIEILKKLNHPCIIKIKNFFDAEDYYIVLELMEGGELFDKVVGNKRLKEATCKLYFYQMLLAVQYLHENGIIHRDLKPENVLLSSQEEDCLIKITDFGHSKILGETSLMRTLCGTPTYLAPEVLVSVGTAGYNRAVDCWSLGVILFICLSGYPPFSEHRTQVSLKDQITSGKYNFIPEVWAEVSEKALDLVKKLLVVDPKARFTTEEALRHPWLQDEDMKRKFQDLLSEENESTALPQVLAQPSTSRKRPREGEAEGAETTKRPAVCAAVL
UniProt Q15831, sequence (whole entry, looked up): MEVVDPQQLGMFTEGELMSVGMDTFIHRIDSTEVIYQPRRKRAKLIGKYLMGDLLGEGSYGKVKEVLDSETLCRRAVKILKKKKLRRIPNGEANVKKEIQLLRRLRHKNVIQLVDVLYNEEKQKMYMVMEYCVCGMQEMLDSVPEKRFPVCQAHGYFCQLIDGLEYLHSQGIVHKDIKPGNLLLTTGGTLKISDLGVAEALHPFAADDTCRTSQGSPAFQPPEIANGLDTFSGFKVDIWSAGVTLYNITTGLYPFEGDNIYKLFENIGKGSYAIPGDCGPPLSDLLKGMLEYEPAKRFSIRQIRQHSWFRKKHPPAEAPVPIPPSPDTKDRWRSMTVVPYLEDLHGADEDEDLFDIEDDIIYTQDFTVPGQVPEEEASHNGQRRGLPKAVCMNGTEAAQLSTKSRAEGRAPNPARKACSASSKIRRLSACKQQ
UniProt Q96RR4, sequence (whole entry, looked up): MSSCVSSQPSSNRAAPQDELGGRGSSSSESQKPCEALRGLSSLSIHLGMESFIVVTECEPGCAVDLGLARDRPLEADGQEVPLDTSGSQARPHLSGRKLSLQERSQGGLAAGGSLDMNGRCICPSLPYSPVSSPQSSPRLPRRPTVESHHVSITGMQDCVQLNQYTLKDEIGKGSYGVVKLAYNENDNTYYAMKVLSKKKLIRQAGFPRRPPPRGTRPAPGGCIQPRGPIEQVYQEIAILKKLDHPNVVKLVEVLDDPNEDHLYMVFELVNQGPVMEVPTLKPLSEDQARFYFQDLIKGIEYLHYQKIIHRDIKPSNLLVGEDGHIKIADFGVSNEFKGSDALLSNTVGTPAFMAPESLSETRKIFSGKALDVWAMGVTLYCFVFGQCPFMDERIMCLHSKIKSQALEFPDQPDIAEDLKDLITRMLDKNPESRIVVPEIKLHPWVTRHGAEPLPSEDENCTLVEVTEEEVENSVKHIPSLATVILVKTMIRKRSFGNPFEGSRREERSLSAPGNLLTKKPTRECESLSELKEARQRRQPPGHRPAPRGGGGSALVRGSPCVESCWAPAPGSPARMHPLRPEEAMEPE
UniProt Q14164, sequence (whole entry, looked up): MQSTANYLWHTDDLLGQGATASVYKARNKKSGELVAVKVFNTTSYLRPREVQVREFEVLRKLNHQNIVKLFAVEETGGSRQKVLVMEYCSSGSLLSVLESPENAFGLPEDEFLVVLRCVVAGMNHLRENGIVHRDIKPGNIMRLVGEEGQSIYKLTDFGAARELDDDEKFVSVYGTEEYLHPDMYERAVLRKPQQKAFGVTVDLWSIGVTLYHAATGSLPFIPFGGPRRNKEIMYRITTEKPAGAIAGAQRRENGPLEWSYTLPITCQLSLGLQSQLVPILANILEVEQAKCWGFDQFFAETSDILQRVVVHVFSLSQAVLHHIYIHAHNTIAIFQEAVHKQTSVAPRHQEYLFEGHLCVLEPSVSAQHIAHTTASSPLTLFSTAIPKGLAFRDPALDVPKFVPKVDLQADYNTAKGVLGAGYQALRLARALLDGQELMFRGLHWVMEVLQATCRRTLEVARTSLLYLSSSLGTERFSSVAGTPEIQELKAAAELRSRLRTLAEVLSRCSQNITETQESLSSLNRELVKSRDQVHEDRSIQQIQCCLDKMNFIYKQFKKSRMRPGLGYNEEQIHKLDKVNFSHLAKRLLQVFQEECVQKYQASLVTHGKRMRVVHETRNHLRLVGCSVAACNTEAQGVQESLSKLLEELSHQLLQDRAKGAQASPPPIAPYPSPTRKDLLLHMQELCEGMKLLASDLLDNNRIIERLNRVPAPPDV
UniProt P36897, sequence (whole entry, looked up): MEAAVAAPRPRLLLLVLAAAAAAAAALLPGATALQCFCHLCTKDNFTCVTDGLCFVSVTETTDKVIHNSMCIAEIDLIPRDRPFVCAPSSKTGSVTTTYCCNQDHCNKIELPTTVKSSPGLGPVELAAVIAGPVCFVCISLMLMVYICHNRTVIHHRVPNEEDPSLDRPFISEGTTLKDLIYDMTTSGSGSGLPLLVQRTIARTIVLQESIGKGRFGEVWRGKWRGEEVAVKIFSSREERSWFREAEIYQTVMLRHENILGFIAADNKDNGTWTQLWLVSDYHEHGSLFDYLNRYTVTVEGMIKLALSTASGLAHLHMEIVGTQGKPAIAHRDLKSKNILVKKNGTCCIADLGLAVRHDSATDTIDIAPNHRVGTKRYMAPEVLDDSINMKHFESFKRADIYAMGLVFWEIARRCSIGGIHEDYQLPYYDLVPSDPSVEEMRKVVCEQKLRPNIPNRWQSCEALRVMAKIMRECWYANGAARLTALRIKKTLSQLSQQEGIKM
UniProt Q13557, sequence (whole entry, looked up): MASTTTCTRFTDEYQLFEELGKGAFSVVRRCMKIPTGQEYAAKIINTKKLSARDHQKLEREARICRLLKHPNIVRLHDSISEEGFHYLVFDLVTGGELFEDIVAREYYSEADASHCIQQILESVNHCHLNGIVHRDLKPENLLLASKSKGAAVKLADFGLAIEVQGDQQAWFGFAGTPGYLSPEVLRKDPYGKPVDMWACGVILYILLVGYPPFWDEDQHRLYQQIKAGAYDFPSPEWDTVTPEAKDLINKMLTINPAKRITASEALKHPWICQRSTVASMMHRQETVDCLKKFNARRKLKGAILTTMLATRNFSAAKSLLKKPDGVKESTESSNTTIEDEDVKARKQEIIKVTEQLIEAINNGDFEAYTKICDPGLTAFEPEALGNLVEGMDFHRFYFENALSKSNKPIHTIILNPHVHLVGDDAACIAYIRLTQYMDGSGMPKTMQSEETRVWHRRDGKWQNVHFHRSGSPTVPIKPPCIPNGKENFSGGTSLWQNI
UniProt Q13976, sequence (whole entry, looked up): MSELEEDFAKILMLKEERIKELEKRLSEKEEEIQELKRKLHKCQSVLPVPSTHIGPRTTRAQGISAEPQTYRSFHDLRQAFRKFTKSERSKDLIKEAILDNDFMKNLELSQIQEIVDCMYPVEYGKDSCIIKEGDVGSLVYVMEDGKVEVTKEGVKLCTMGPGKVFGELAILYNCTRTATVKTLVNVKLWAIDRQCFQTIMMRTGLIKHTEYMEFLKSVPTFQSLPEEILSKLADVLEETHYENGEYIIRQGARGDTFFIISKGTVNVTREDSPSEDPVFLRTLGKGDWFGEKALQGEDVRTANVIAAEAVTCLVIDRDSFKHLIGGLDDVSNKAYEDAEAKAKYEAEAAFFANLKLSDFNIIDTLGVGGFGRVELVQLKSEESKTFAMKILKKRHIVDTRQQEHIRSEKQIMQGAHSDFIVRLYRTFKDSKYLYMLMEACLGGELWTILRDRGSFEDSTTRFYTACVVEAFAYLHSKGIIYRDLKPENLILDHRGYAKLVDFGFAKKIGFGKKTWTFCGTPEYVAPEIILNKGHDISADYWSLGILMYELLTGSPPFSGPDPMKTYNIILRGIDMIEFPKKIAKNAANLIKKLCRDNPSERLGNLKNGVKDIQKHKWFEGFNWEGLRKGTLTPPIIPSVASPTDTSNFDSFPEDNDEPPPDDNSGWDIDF

Set 1 — effect on: enzyme activity; mode: inhibitor; tested at: 0.5 µM; reference: control
Compound: COc1ccc2c(c1)c(C1=C(c3c[nH]c4ccccc34)C(=O)NC1=O)cn2CCCN(C)C
For TGF-beta receptor type-1 (TGFBR1, Homo sapiens, UniProt P36897): remaining activity read 101%.
It gave 100% for remaining activity (Inhibitor of nuclear factor kappa-B kinase subunit epsilon (IKBKE, Homo sapiens, UniProt Q14164)).
For Cyclin-dependent kinase 5, with p25 (CDK5, Homo sapiens, UniProt Q00535): remaining activity read 114%.
G protein-coupled receptor kinase 3 (GRK3, Homo sapiens, UniProt P35626) — remaining activity: 96.3%.
For cGMP-dependent protein kinase 1, isoform beta (PRKG1, Homo sapiens, UniProt Q13976): remaining activity read 79.4%.
The remaining activity was 120% (TGF-beta receptor type-2 (TGFBR2, Homo sapiens, UniProt P37173)).
Cyclin-dependent kinase 4, with cyclin D1 (CDK4, Homo sapiens, UniProt P11802) — remaining activity: 78.6%.
It gave 86.1% for remaining activity (Mitogen-activated protein kinase 9 (MAPK9, Homo sapiens, UniProt P45984)).
Mitogen-activated protein kinase kinase kinase 3 (MAP3K3, Homo sapiens, UniProt Q99759) — remaining activity: 82.8%.
It gave 82% for remaining activity (Calcium/calmodulin-dependent protein kinase kinase 2 (CAMKK2, Homo sapiens, UniProt Q96RR4)).
The remaining activity was 111% (STE20/SPS1-related proline-alanine-rich protein kinase (STK39, Homo sapiens, UniProt Q9UEW8)).
The remaining activity was 81.1% (Death-associated protein kinase 2 (DAPK2, Homo sapiens, UniProt Q9UIK4)).
The remaining activity was 99.7% (Serine/threonine-protein kinase Nek2 (NEK2, Homo sapiens, UniProt P51955)).
The remaining activity was 99.6% (Inhibitor of nuclear factor kappa-B kinase subunit beta (IKBKB, Homo sapiens, UniProt O14920)).
The remaining activity was 3.14% (Protein kinase C alpha type (PRKCA, Homo sapiens, UniProt P17252)).
It gave 19.3% for remaining activity (Protein kinase C beta type, isoform beta-I (PRKCB, Homo sapiens, UniProt P05771)).
cAMP-dependent protein kinase catalytic subunit alpha (PRKACA, Homo sapiens, UniProt P17612) — remaining activity: 77.9%.
For Serine/threonine-protein kinase OSR1 (OXSR1, Homo sapiens, UniProt O95747): remaining activity read 97.7%.
The remaining activity was 31.7% (Serine/threonine-protein kinase 10 (STK10, Homo sapiens, UniProt O94804)).
For Serine/threonine-protein kinase Chk2 (CHEK2, Homo sapiens, UniProt O96017): remaining activity read 38.8%.
The remaining activity was 74.8% (Calcium/calmodulin-dependent protein kinase type II subunit delta (CAMK2D, Homo sapiens, UniProt Q13557)).
For Serine/threonine-protein kinase STK11 (STK11, Homo sapiens, UniProt Q15831): remaining activity read 101%.
For Death-associated protein kinase 1 (DAPK1, Homo sapiens, UniProt P53355): remaining activity read 105%.
For Tyrosine-protein kinase Lyn, isoform B (LYN, Homo sapiens, UniProt P07948): remaining activity read 94.2%.

Set 2 — technique: competition with immobilised ligand; tested at: 1 µM
Compound: COc1cc(-c2cn(C3CCc4ccccc4N(CC(F)(F)F)C3=O)nn2)ccc1-n1ccc(C)n1 (stereo not shown)
For Tyrosine-protein kinase Lck (LCK, Homo sapiens, UniProt P06239); binding: remaining binding read 100%.
For Mitogen-activated protein kinase 8 (MAPK8, Homo sapiens, UniProt P45983); cell-free assay: remaining binding read 55%.
For eIF-2-alpha kinase GCN2, C-terminal kinase domain (EIF2AK4, Homo sapiens, UniProt Q9P2K8, S808G); cell-free assay: remaining binding read 100%.
It gave 80% for remaining binding (Myosin light chain kinase, smooth muscle (MYLK, Homo sapiens, UniProt Q15746); binding).

Set 3 — species: mouse; matrix: microsomes or S9; tested at: 2 µM; time: 0.5 h
For `CCc1c(OCC(=O)Nc2cc(OC)c(OC)c(OC)c2)c(=O)ccn1CCO`, the remaining compound was 84.7%.
`CN1O[C@H](COc2ccc(O/C(F)=C\c3ccccc3)cc2)C[C@@]1(Cn1cncn1)c1ccccc1` gave a remaining compound of 73.7%.
`O=S(=O)(Nc1cc(F)cc(F)c1)c1c[nH]c2ncccc12` has a remaining compound of 45.8%.
For `CCOC(=O)c1c(N)sc2c1CCC(NC(=O)OC(C)(C)C)C2` (stereo not shown), the remaining compound was 84%.

Set 4 — technique: protein-binding microarray; form: double-stranded DNA, one strand shown; matrix: in vitro; tested at: 940 nM top; notes: 60-bp whole probe; added: salmon DNA 0.4 mg/ml; reference: random background probes; direction: higher = stronger binding; all sequences stand within: GCCTAGCAC … GTCTTGATTCGCTTGACGCTGCTG
Target: Interferon regulatory factor 5, full length, phosphomimetic (IRF5, Homo sapiens, UniProt Q13568-2, residues 1-514, S451D/S453D/S456D/S462D)
`GACTGTTTCCTTTTCCTGACGTGCTAG` — result for “fitted relative affinity”: 1.79 z-score.
Under “fitted relative affinity”, `GACGGTATCGGGTTTCGGAACGTGCTA` is recorded as 5.92 z-score.
`TGCCCTCTAACTTCCCAATGGTGCTAG` — result for “fitted relative affinity”: 0.902 z-score.
Under “fitted relative affinity”, `GACCATTTCAGTTCCGAGACGTGCTAG` is recorded as 1.21 z-score.
`TTAGGTATCGGATATCGGTTAGTGCTA`: “fitted relative affinity” 4.94 z-score.
Under “fitted relative affinity”, `GACGATCTAAGTATCGAGACGTGCTAG` is recorded as 1.26 z-score.
Under “fitted relative affinity”, `GACGGTTCTCTTTTCCTGACGTGCTAG` is recorded as 1.1 z-score.
`GACGAACTGAGTCTCGAAACGTGCTAG` — result for “fitted relative affinity”: 1.43 z-score.

Set 5 — target: CCNB1, cyclin fold, Cln2 fusion (human); technique: yeast growth competition, sequencing; matrix: yeast; notes: strong parent motif; reference: not given; direction: higher = stronger binding
Parent: DNAH7 docking peptide (human); HELFQRLDFDNDG
`H1A` — result for “normalised enrichment score”: 1.55.
`L7A` — result for “normalised enrichment score”: -0.348.
`F9A` — result for “normalised enrichment score”: 0.51.
Under “normalised enrichment score”, `G13A` is recorded as 1.83.
`N11A` — result for “normalised enrichment score”: 1.91.
`E2A`: “normalised enrichment score” 2.03.
For `F4A`, “normalised enrichment score” read 2.18.

Mixed results — technique: nitrocellulose filter binding; form: RNA; matrix: in vitro; tested at: 100 nM; reference: round 9 selected pool; direction: higher = stronger binding
Target: SMN1, full length (human, UniProt Q16637, residues 1-294)
UniProt Q16637, sequence (whole entry, looked up): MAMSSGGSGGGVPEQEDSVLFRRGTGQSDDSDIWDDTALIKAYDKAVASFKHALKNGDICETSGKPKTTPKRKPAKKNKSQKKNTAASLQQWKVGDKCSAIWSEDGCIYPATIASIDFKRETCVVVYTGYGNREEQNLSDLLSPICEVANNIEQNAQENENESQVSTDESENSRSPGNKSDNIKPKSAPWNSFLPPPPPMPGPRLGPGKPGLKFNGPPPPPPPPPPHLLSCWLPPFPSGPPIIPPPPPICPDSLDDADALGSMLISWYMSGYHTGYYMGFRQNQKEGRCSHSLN
Notes: whole RNA, constant flanks, single concentration, ends assumed
`GGGCUCACCACGCACGACACAUUGCCCUGGGGAAUUGGUGCCUCACCACGGCAAGCU`: “relative RNA binding” 20 % of pool.
`GGGCUCACCACGCACGCGGUGAUCGGAGGAUAGUGCGUCUCCUCACCACGGCAAGCU` — result for “relative RNA binding”: 2.8 % of pool.

For quick reference, copied from above (set 5):
Under “normalised enrichment score”, `G13A` is recorded as 1.83.
`E2A`: “normalised enrichment score” 2.03.
`N11A` — result for “normalised enrichment score”: 1.91.
`L7A` — result for “normalised enrichment score”: -0.348.
For `F4A`, “normalised enrichment score” read 2.18.
`H1A` — result for “normalised enrichment score”: 1.55.
